Literature values that unrelated publications cite.
Each line is one published result; not all experiments were run side by side. ± gives the spread as reported. In brackets after ≈: the same amount, converted by molar mass.

COC(=O)C1=C(C)NC(C)=C(C(=O)OC)C1c1c(-c2ccc(OC)c(OC)c2)nc2sccn12  decrease in heart rate (guinea pig right atrium; 5x1.000e-05 M): 80 ± 1.9%
CNC(C)C1CCC(N)C(OC2C(N)CC(N)C(OC3OCC(C)(O)C(NC)C3O)C2O)O1 (stereo not drawn)  MIC (Pseudomonas aeruginosa; clinical isolate RKI-No_81/10): > 8 µg/mL
COc1ccc(CC(C)NCC(O)c2ccc(O)c(NC=O)c2)cc1 (stereo not drawn)  trough FEV1 change from baseline (COPD patients; inhaled, 36 µg single, 12 h post-dose; relative to: placebo): 131 mL
COc1ccccc1Oc1cccc(CN2CCC(NC(=O)C(CCN3CCCC3)c3ccccc3)CC2)c1 (stereo not drawn)  EC50 (human CCR8 K193A mutant (TM5); IP accumulation, agonist): 6 nM
C[C@H]1COCCN1c1nc(-c2cnc(N)cc2C(F)F)nc(N2CCOCC2)n1  GI50 (A704): 361 nM
Cc1[nH]c(C)c(-c2ccc(OCc3ccc(F)cc3)cc2)c(=O)c1Cl  IC50 (Plasmodium falciparum; whole cell extended time; 3D7; 72 h): 570 nM
CCNS(=O)(=O)c1ccc(OC)cc1C1(O)CCN(Cc2cccc(Oc3ccccc3OC)c2)CC1  EC50 (human CCR8 L168D mutant (TM4); IP accumulation, agonist): 31 nM
COc1ccc(C#Cc2ccc(-c3c(C)[nH]c(C)c(Cl)c3=O)cc2)cc1  IC50 (Plasmodium falciparum; whole cell extended time; 3D7; 72 h): 70 nM
CC1(C)S[C@@H]2[C@H](NC(=O)[C@H](N)c3ccccc3)C(=O)N2[C@H]1C(=O)O  MIC (Klebsiella pneumoniae; clinical isolate RKI-No_393/16): 8 µg/mL (≈ 22.9 µM)
CCN(c1cc(-c2ccc(CN3CCOCC3)cc2)cc(C(=O)NCc2c(C)cc(C)[nH]c2=O)c1C)C1CCOCC1  overall response rate (epithelioid sarcoma patients; dose not given): 11%
CCOC(=O)c1cn(CC)c2cc(N3CCCCCC3)c(F)cc2c1=O  IC50 (Plasmodium falciparum; whole cell extended time; 3D7; 72 h): 410 nM
CC(C)(C)n1nc(Cc2cccc3ccccc23)c2c(N)ncnc21  inhibition (CSNK1G1; kinase activity, inhibitor; 0.5 µM): 7%
COC(=O)C1=C(C)NC(C)=C(C(=O)OC)C1c1c(-c2cccc(OC)c2)nc2sccn12  EC50 (decrease in atrial rate; guinea pig right atrium): 1360 nM
Cc1[nH]c(C)c(-c2ccc(OCc3cccc(C(F)(F)F)c3)nc2)c(=O)c1Br  IC50 (Plasmodium falciparum; whole cell extended time; 3D7; 72 h): 40 nM
COc1ccccc1Oc1cccc(CN2CCC(O)(c3ccccc3C(=O)O)CC2)c1  EC50 (human CCR8 W251Q mutant (TM6); IP accumulation, agonist): 278 nM
O=C(Nc1nc2ccccc2[nH]1)c1ccccc1  response (SUMO/sentrin specific protease 8; 10 µM, PubChem AID 2540): 90%
O=C(O)c1ccc(O)c(O)c1  effective dose (lung protection; lung injury, acute, LPS-induced mouse; intraperitoneal): 5 mg/kg
COC(=O)C1=C(C)NC(C)=C(C(=O)OC)C1c1c(C)nc2sc(Cl)cn12  decrease in developed tension (guinea pig left atrium; 50 µM, paced at 1 Hz; relative to: control): 63 ± 4.7%
Cc1[nH]c(C)c(-c2ccc(OCc3cc(F)cc(F)c3)nc2)c(=O)c1Br  IC50 (Plasmodium falciparum; whole cell extended time; 3D7; 72 h): 100 nM
Nc1cc(C(F)(F)F)c(-c2nc(N3CCOCC3)nc(N3CCOCC3)n2)cn1  GI50 (BT-549): 1320 nM
Cc1c(C#N)cccc1[C@@H](C)Nc1nnc(C)c2cnc(N3CCOCC3)cc12  IC50 (OCI-AML-5; 3D cell viability; 7 d): 89.3 ± 0.07 nM
COc1ccccc1Oc1cccc(CN2CCC(NC(=O)C3CC(=O)Nc4ccccc43)CC2)c1 (stereo not drawn)  EC50 (human CCR8 Y172A mutant (ECL2); IP accumulation, agonist): 30 nM
Cc1cc(C)c(CNC(=O)c2cc(Cl)c3c(c2C)O[C@@](C)([C@H]2CC[C@H](N(C)C)CC2)O3)c(=O)[nH]1  median duration of response (relapsed/refractory PTCL patients; dose not given): 56 weeks
CCc1cn2c(C3C(C(=O)OC)=C(C)NC(C)=C3C(=O)OC)c(-c3cc(OC)ccc3OC)nc2s1  decrease in developed tension (guinea pig left atrium; 50 µM, paced at 1 Hz; relative to: control): 72 ± 3.6%
COc1ccccc1Oc1cccc(CN2CCC3(CC2)C(=O)NCN3CCc2ccccc2)c1  EC50 (human CCR8 G206A mutant (TM5); IP accumulation, agonist): 19 nM
COC(=O)C1=C(C)NC(C)=C(C(=O)OC)C1c1c(-c2ccccc2OC(F)(F)F)nc2sccn12  IC50 (calcium-induced contraction, relaxant; guinea pig ileum longitudinal muscle): 1950 nM
CCCCCCCc1c(C)[nH]c2cc(OC)ccc2c1=O  IC50 (Plasmodium falciparum; whole cell extended time; 3D7; 72 h): 60 nM
Cl.Nc1nccc(-c2c(-c3ccc(F)cc3)ncn2C2CCNCC2)n1  inhibition (CSNK1G1; kinase activity, inhibitor; 0.5 µM): 17%
COC(=O)C1=C(C)NC(C)=C(C(=O)OC)C1c1c(Cl)nc2sc(Cl)cn12  EC50 (negative inotropic effect; guinea pig, isolated left atrium): 180 nM
Cc1cc(NC2CCCC2)nc(Nc2ccccc2)n1  IC50 (Plasmodium falciparum; whole cell extended time; 3D7; 72 h): 990 nM
Nc1cccc2c1C(=O)N(C1CCC(=O)NC1=O)C2=O (stereo not drawn)  IC50 (TNF release; human whole blood; with: LPS): ~13 nM
COC(=O)C1=C(C)NC(C)=C(C(=O)OC)C1c1c(-c2cccc(C(F)(F)F)c2)nc2sccn12  EC50 (negative inotropic effect; guinea pig, isolated left atrium): 310 nM
Cc1[nH]c(C)c(-c2ccc(-c3ccc(C(F)(F)F)cc3C(F)(F)F)nc2)c(=O)c1Br  IC50 (Plasmodium falciparum; whole cell extended time; 3D7; 72 h): 190 nM
